# Measured values of several laboratories.
# ± gives the spread as reported.
# IFIT1: Antiviral innate immune response effector IFIT1 (IFIT1, Homo sapiens, UniProt P09914)
# VHL with elongin B/C: von Hippel-Lindau disease tumor suppressor, with elongin B/C (VHL, Homo sapiens, UniProt P40337)
Compound,target,test,system,setting,Kd
O=P(O)(O)O[C@H]1[C@H](OP(=O)(O)O)[C@@H](OP(=O)(O)O)[C@@H](O)[C@@H](O)[C@@H]1OP(=O)(O)O,"Inositol-tetrakisphosphate 1-kinase (Homo sapiens, UniProt Q13572)","binding, microscale thermophoresis",,added: ATP 10 µM,0.94 ± 0.25 µM
NCCCC[C@H](NC(=O)[C@H](C/C=C\C[C@H](NC(=O)[C@@H]1CCCN1)C(=O)N[C@@H](CCCCN)C(=O)NCCCN)NC(=O)[C@@H]1CCCN1)C(=O)NCCCN,CUG–CAG duplex RNA,SPR,,,0.348 µM
Nc1nc2c(ncn2[C@@H]2O[C@H](COP(=O)(O)O[C@H]3[C@@H](O)[C@H](n4ccc(=O)[nH]c4=O)O[C@@H]3COP(=O)(O)OP(=O)(O)OP(=O)(O)O)[C@@H](O)[C@H]2O)c(=O)[nH]1,IFIT1,"binding, microscale thermophoresis",,"pH 7.5, 70 nt capped RNA",0.27 µM
CCc1nc2cc3ccccc3cc2cc1C(=O)N[C@@H](CCCCN)C(=O)N[C@@H](C/C=C\C[C@H](NC(=O)[C@H](CCCCN)NC(=O)c1cc2cc3ccccc3cc2nc1CC)C(=O)N1CCC[C@H]1C(=O)NCCCN)C(=O)N1CCC[C@H]1C(=O)NCCCN,CUG–CAG duplex RNA,SPR,,,0.0878 µM
CO[C@@H]1[C@H](OP(=O)(O)OC[C@H]2O[C@@H](n3cnc4c(=O)[nH]c(N)nc43)[C@H](O)[C@@H]2O)[C@@H](COP(=O)(O)OP(=O)([O-])OP(=O)(O)OC[C@H]2O[C@@H](n3c[n+](C)c4c(O)nc(N)nc43)[C@H](O)[C@@H]2O)O[C@H]1n1cnc2c(N)ncnc21,IFIT1,"binding, microscale thermophoresis",,"pH 7.5, 70 nt capped RNA",0.52 µM
CCc1nc2cc3ccccc3cc2cc1C(=O)N1CCC[C@H]1C(=O)N[C@@H](C/C=C/C[C@H](NC(=O)[C@@H]1CCCN1C(=O)c1cc2cc3ccccc3cc2nc1CC)C(=O)N[C@@H](CCCCN)C(=O)NCCCN)C(=O)N[C@@H](CCCCN)C(=O)NCCCN,CUG–CAG duplex RNA,SPR,,,0.427 µM
CNc1ncnc2c1ncn2[C@@H]1O[C@H](COP(=O)(O)OP(=O)([O-])OP(=O)(O)OC[C@H]2O[C@@H](n3c[n+](C)c4c(O)nc(N)nc43)[C@H](O)[C@@H]2O)[C@@H](OP(=O)(O)OC[C@H]2O[C@@H](n3cnc4c(=O)[nH]c(N)nc43)[C@H](O)[C@@H]2O)[C@H]1OC,IFIT1,"binding, microscale thermophoresis",,"pH 7.5, 70 nt capped RNA",0.9 µM
CC(=O)c1cnc2ccc(-c3cc(Cl)c(O)c(Cl)c3)nc2c1N[C@H]1CC[C@H](CN(C)C)CC1,"Receptor-like protein kinase FERONIA (FER, Arabidopsis thaliana, UniProt Q9SCZ4, Y610A)","binding, SPR",,mutant protein,1.8 µM
CC(=O)NCC1CCCCN1c1nc(NCC2Cc3ccccc3O2)nc(N2CC3C(CCOc4cc(-c5scnc5C)ccc4CNC(=O)C4CC(O)CN4C(=O)C(NC(=O)C4(F)CC4)C(C)(C)C)C3C2)n1 (stereo not drawn),VHL with elongin B/C,"binary binding, SPR",,,0.202 µM
Cn1ncc2cc(-c3cncc(Cl)c3N3CCC4(CCNC4=O)CC3)ccc21,"Protein mono-ADP-ribosyltransferase PARP16 (PARP16, Homo sapiens, UniProt Q8N5Y8)",SILAC displacement,LS174T-L5 cell lysate,,18 µM
CC(=O)N1c2ccc(-c3ccc(CNC(=O)c4cn5cc(-c6cnc(N)nc6)nc(N6CCOCC6)c5n4)cc3)cc2CC[C@@H]1C,"Bromodomain-containing protein 2, BD1 (BRD2, Homo sapiens, UniProt P25440)","binding, competition with immobilised ligand",,,0.12 µM
CNc1ncnc2c1ncn2[C@@H]1O[C@H](COP(=O)(O)OP(=O)([O-])OP(=O)(O)OC[C@H]2O[C@@H](n3c[n+](C)c4c(O)nc(N)nc43)[C@H](O)[C@@H]2O)[C@@H](OP(=O)(O)OC[C@H]2O[C@@H](n3cnc4c(=O)[nH]c(N)nc43)[C@H](O)[C@@H]2O)[C@H]1O,IFIT1,"binding, microscale thermophoresis",,pH 7.5,50 µM
CC(=O)NCCN(c1nc(N2CC(Oc3ccccc3)C2)nc(N2CC3C(CCOc4cc(-c5scnc5C)ccc4CNC(=O)[C@@H]4C[C@@H](O)CN4C(=O)[C@@H](NC(=O)C4(F)CC4)C(C)(C)C)C3C2)n1)C(C)C (stereo partly drawn),VHL with elongin B/C,"binary binding, SPR",,,0.437 µM
COc1ccc2nc(-c3ccc(N(C)C)cc3)sc2c1,"Alpha-synuclein, fibril (SNCA, Homo sapiens, UniProt P37840)","binding, SPR",,,0.33 µM
COC(=O)CCCNC(=O)c1cc(S(N)(=O)=O)c(Cl)cc1NC1CCCCC1,"Carbonic anhydrase 7 (CA7, Homo sapiens, UniProt P43166)",,,pH 7,4 µM
Nc1ncnc2c1ncn2[C@@H]1O[C@@H]2COP(=O)(O)O[C@H]3C[C@H](n4cnc5c(N)ncnc54)O[C@@H]3COP(=O)(O)O[C@@H]1C2,"Stimulator of interferon genes protein (STING1, Homo sapiens, UniProt Q86WV6, R220H)",binding,,,15.1 ± 14.5 µM
O=C(O)[C@H]1O[C@@H](O[C@H]2[C@H](O)[C@H](O)[C@H](O[C@H]3[C@H](O)[C@H](O)[C@H](O)O[C@@H]3C(=O)O)O[C@H]2C(=O)O)[C@@H](O)[C@@H](O)[C@@H]1O[C@@H]1O[C@@H](C(=O)O)[C@@H](O)[C@H](O)[C@@H]1O,"Beta-lactoglobulin (LGB, Bos taurus, UniProt P02754, A134V/G80D)",isothermal titration calorimetry,,"pH 4.00, 37 °C, 50 mM KH2PO4",222 µM
O=C(O)CCC(=O)c1cccc(NS(=O)(=O)c2c[nH]c3ncccc23)c1,"BRCA1-associated protein, ZnF-UBD domain (BRAP, Homo sapiens, UniProt Q7Z569)",,,,413 µM
Cc1cc2nc3c(=O)[nH]c(=O)nc-3n(C[C@H](O)[C@H](O)[C@H](O)COP(=O)(O)OP(=O)(O)OC[C@H]3O[C@@H](n4cnc5c(N)ncnc54)[C@H](O)[C@@H]3OP(=O)(O)OC[C@H]3O[C@@H](n4cnc5c(=O)[nH]c(N)nc54)[C@H](O)[C@@H]3O)c2cc1C,IFIT1,"binding, microscale thermophoresis",,"pH 7.5, 70 nt capped RNA",0.08 µM
Cc1cccc2c1N(C(=O)n1ccnn1)CC2,"KAI2 (Arabidopsis thaliana, UniProt Q9SZU7, D217E)",ITC,,"D217E mutant, mean",1170 µM
BP(=O)(OC[C@H]1O[C@@H](n2cnc3c(=O)[nH]c(N)nc32)[C@H](O)[C@@H]1O)OP(=O)([O-])OP(=O)(O)OC[C@H]1O[C@@H](n2c[n+](C)c3c(O)nc(N)nc32)[C@H](O)[C@@H]1O (stereo partly drawn),"Eukaryotic translation initiation factor 4E, residues 28-217 (Eif4e, Mus musculus, UniProt P63073)","cap binding, fluorescence quenching titration",,,0.07 µM
CN(C)c1nc(O)c2c(n1)n([C@@H]1O[C@H](COP(=O)(O)OP(=O)([O-])OP(=O)(O)OC[C@H]3O[C@@H](n4cnc5c(N)ncnc54)[C@H](O)[C@@H]3OP(=O)(O)OC[C@H]3O[C@@H](n4cnc5c(=O)[nH]c(N)nc54)[C@H](O)[C@@H]3O)[C@@H](O)[C@H]1O)c[n+]2C,IFIT1,"binding, microscale thermophoresis",,"pH 7.5, 70 nt capped RNA",0.023 µM
Cc1ncsc1-c1ccc2c(c1)OCCOCCOC[C@@H](NC(=O)C[C@@H]1N=C(c3ccc(Cl)cc3)c3c(sc(C)c3C)-n3c(C)nnc31)COCCOCCOCC(=O)N[C@@H](C(C)(C)C)C(=O)N1C[C@H](O)C[C@H]1C(=O)NC2,"von Hippel-Lindau disease tumor suppressor, with Elongin B/C (VHL, Homo sapiens, UniProt P40337)",,,,0.065 µM
C[n+]1cn([C@@H]2O[C@H](COP(=O)(O)OP(=O)([O-])OP(=O)(O)OC[C@H]3O[C@@H](n4ccc(N)nc4=O)[C@H](O)[C@@H]3OP(=O)(O)OC[C@H]3O[C@@H](n4cnc5c(=O)[nH]c(N)nc54)[C@H](O)[C@@H]3O)[C@@H](O)[C@H]2O)c2nc(N)nc(O)c21,IFIT1,"binding, microscale thermophoresis",,"pH 7.5, 70 nt capped RNA",0.23 µM
O=C(NO)c1cnc(NC2(c3cccc(F)c3)CCCCC2)nc1,"Isochorismatase domain-containing protein 1 (Homo sapiens, UniProt Q96CN7)","inhibitor, competition pulldown",SW620 and MV4-11 lysate,1 h,> 30.2 µM
C[n+]1cn([C@@H]2O[C@H](COP(=O)(O)OP(=O)([O-])OP(=O)(O)OC[C@H]3O[C@@H](n4cnc5c(N)ncnc54)[C@H](O)[C@@H]3OP(=O)(O)OC[C@H]3O[C@@H](n4cnc5c(=O)[nH]c(N)nc54)[C@H](O)[C@@H]3O)[C@@H](O)[C@H]2O)c2nc(N)nc(O)c21,IFIT1,"binding, microscale thermophoresis",,"pH 7.5, 70 nt capped RNA",0.1 µM
C#CCN1CCN(c2nc(N3CCC(CCOc4cc(-c5scnc5C)ccc4CNC(=O)[C@@H]4C[C@@H](O)CN4C(=O)[C@@H](NC(=O)C4(F)CC4)C(C)(C)C)CC3)nc(N3CCN(C(=O)C4CC4)C3)n2)CC1=O,VHL with elongin B/C,"binary binding, SPR",,,0.013 µM

# For quick reference, copied from above:
Compound,target,test,system,setting,Kd
CC(=O)c1cnc2ccc(-c3cc(Cl)c(O)c(Cl)c3)nc2c1N[C@H]1CC[C@H](CN(C)C)CC1,"Receptor-like protein kinase FERONIA (FER, Arabidopsis thaliana, UniProt Q9SCZ4, Y610A)","binding, SPR",,mutant protein,1.8 µM
CCc1nc2cc3ccccc3cc2cc1C(=O)N1CCC[C@H]1C(=O)N[C@@H](C/C=C/C[C@H](NC(=O)[C@@H]1CCCN1C(=O)c1cc2cc3ccccc3cc2nc1CC)C(=O)N[C@@H](CCCCN)C(=O)NCCCN)C(=O)N[C@@H](CCCCN)C(=O)NCCCN,CUG–CAG duplex RNA,SPR,,,0.427 µM
